# Measurements from different studies.
# Each line is one published result; not all experiments were run side by side. Several values in a cell are separate wells, animals, samples, runs or records. ± gives the spread as reported.
SMILES,organism,test,test system,setting,IC50
CC(C)(C)SC[C@@H]1NC(=O)[C@H](CCCNC(=N)N)NC(=O)[C@H](Cc2ccccc2)NC(=O)[C@H](CCCNC(=N)N)NC(=O)[C@@H](NC(=O)[C@@H](N)CCCNC(=N)N)CSSC[C@@H](C(=O)N[C@@H](CCCNC(=N)N)C(N)=O)NC(=O)[C@H](CCCNC(=N)N)NC(=O)[C@H](Cc2ccc(O)cc2)NC(=O)[C@H](CCCNC(=N)N)NC(=O)[C@H](Cc2c[nH]cn2)NC(=O)[C@H](CC2CCCCC2)NC(=O)[C@H]2CCCN2C1=O,hepatitis C virus,"viral replication, Renilla luciferase reporter",Huh7.5,48 h,0.000234 µM
COc1cc2c(=O)c(C(=O)NCCNCCO)cn(Cc3ccccc3)c2cc1OCc1cccc(Br)c1,Leishmania donovani,,Bob promastigotes,120 h,> 20 µM
N=C(N)NCCC[C@@H]1NC(=O)[C@H](Cc2ccc(O)cc2)NC(=O)[C@H](CCCNC(=N)N)NC(=O)[C@H](Cc2c[nH]cn2)NC(=O)[C@H](CC2CCCCC2)NC(=O)[C@H]2CCCN2C(=O)[C@H](C2CCCCC2)NC(=O)[C@H](CCCNC(=N)N)NC(=O)[C@H](Cc2ccc3ccccc3c2)NC(=O)[C@H](CCCNC(=N)N)NC(=O)[C@@H](N)CSSC[C@@H](C(N)=O)NC1=O,hepatitis C virus,"viral replication, Renilla luciferase reporter",Huh7.5,48 h,4.8e-05 µM
[Cl-].[Cl-].[Ni+2].c1ccc(CN2CCNCCN(Cc3ccccc3)CCNCC2)cc1,Leishmania donovani,"parasite growth, resazurin",,"72 h, promastigote",18.6 µM
Cc1cccc2c1NC(=O)C2=Cc1ccc(-c2cccc(C(=O)N3CCCN(C)CC3)c2)o1 (mixture of isomers),Trichuris muris,adult worm motility,,48 h,14.7 µM
CC(C)[C@@H]1NC(=O)[C@H](CCCNC(=N)N)NC(=O)[C@H](Cc2ccccc2)NC(=O)[C@H](CO)NC(=O)[C@@H](NC(=O)CCCCCNC(=O)CCCCCNC(=O)[C@H](CCCNC(=N)N)NC(=O)CCCCCNC(=O)[C@H](CCCNC(=N)N)NC(=O)CCCCCNC(=O)[C@H](CCCNC(=N)N)NC(=O)CCCCCNC(=O)[C@H](CCCNC(=N)N)NC(=O)CCCCCNC(=O)[C@H](CCCNC(=N)N)NC(=O)CCCCCNC(=O)[C@H](CCCNC(=N)N)NC(=O)CCCCCNC(=O)[C@@H](N)CCCNC(=N)N)CSSC[C@@H](C(N)=O)NC(=O)[C@@H]2CCCN2C(=O)[C@H](Cc2ccc(O)cc2)NC(=O)[C@H](CCC(=O)O)NC(=O)[C@H](Cc2c[nH]cn2)NC(=O)[C@H](CC2CCCCC2)NC(=O)[C@H]2CCCN2C1=O,hepatitis C virus,"viral replication, Renilla luciferase reporter virus",Huh-7.5,24 h post infection,~0.0005 µM
O=C(C1CCN(c2nnnn2-c2ccccc2)CC1)N1CCCc2ccccc21,Plasmodium falciparum,[3H]hypoxanthine incorporation,Dd2,72 h,0.9 µM
N=C(N)NCCC[C@H](NC(=O)[C@H](CCCNC(=N)N)NC(=O)[C@H](CCCNC(=N)N)NC(=O)[C@H](CCC(N)=O)NC(=O)[C@H](CCCNC(=N)N)NC(=O)[C@H](CCCNC(=N)N)NC(=O)[C@H](CCCCN)NC(=O)[C@H](CCCCN)NC(=O)[C@H](CCCNC(=N)N)NC(=O)CNC(=O)[C@H](Cc1ccc(O)cc1)NC(=O)CNC(=O)CNC(=O)[C@H](CCCCN)NC(=O)[C@H](CCCNC(=N)N)NC(=O)[C@H](CCC(N)=O)NC(=O)[C@H](CS)NC(=O)[C@H](CCC(N)=O)NC(=O)CNC(=O)[C@H](CC(N)=O)NC(=O)[C@@H](N)CCCNC(=N)N)C(N)=O,Leishmania amazonensis,parasite growth,,"24 h, promastigote",~23 µM
F[P-](F)(F)(F)(F)F.F[P-](F)(F)(F)(F)F.[Cu+2].c1ccc(CN2CCCNCCN(Cc3ccccc3)CCCNCC2)cc1,Leishmania donovani,,"THP-1-derived macrophages, intracellular amastigotes",,> 15 µM
CC[C@H](C)[C@H](NC(=O)CNC(=O)[C@H](CO)NC(=O)[C@H](CC(C)C)NC(=O)[C@@H](N)Cc1ccccc1)C(=O)N[C@H](C(=O)NCC(=O)N[C@@H](CCSC)C(=O)N[C@@H](CC(C)C)C(=O)NCC(=O)N[C@@H](CCCCN)C(=O)N[C@@H](CC(C)C)C(=O)N[C@@H](Cc1ccccc1)C(N)=O)C(C)C,Leishmania amazonensis,parasite growth,,"72 h, promastigote",8 µM
CC#N.[Cl][Mn-2]([Cl])([Cl])[Cl].[Mn+2].c1ccc(CN2CCCN3CCCN(CCCN(Cc4ccccc4)CC3)CC2)cc1,Leishmania donovani,"parasite growth, resazurin",,"72 h, promastigote",3.48 µM
CC(C)C[C@H](NC(=O)[C@H](Cc1c[nH]cn1)NC(=O)[C@H](Cc1ccc(O)cc1)NC(=O)[C@H](CCCNC(=N)N)NC(=O)[C@H](Cc1ccc(O)cc1)NC(=O)[C@H](CCCCN)NC(=O)[C@@H](N)CCCCN)C(=O)N[C@@H](CCCCN)C(=O)N1CCC[C@H]1C(=O)N[C@@H](Cc1ccccc1)C(=O)NCCCC[C@H](NC(=O)[C@H](Cc1ccccc1)NC(=O)[C@@H]1CCCN1C(=O)[C@H](CCCCN)NC(=O)[C@H](CC(C)C)NC(=O)[C@H](Cc1c[nH]cn1)NC(=O)[C@H](Cc1ccc(O)cc1)NC(=O)[C@H](CCCNC(=N)N)NC(=O)[C@H](Cc1ccc(O)cc1)NC(=O)[C@H](CCCCN)NC(=O)[C@@H](N)CCCCN)C(N)=O,Leishmania amazonensis,"intracellular amastigote growth, Giemsa staining",infected macrophages,24 h,7.5 ± 0.15 µM
CC1N=C(CCCCCCCCCCC2=CC(CCCCCCCCCCC3=NC(C)C(O)CC3)C3CCCN3C2)CCC1O (stereo not shown),Leishmania donovani,"cell growth, inhibitor, Alamar Blue",axenic amastigotes,"72 h, 37 °C",1.8 µg/mL and 1.83 µg/mL
CC(=O)[O-].CN1CCN2CCN(CC1)CCN(Cc1ccccc1)CC2.F[P-](F)(F)(F)(F)F.[Cu+2],Leishmania donovani,"parasite growth, resazurin",,"72 h, amastigote",> 20 µM
CC=C1NC(=O)[C@H](Cc2ccccc2)NC(=O)[C@H](C(C)C)NC(=O)[C@H](Cc2ccncc2)NC(=O)[C@H](CCC(N)=O)NC(=O)[C@H](Cc2c[nH]c3ccccc23)NC(=O)C2CSC[C@@H](C(=O)N[C@@H](CO)C(=O)O)NC(=O)[C@H](CSCC3NC(=O)[C@H]([C@@H](C)CC)NC(=O)C(NC(=O)[C@H](Cc4c[nH]cn4)NC(=O)[C@@H](NC(=O)[C@@H](NC(=O)CNC(=O)[C@H](CO)NC(=O)CNC(=O)CNC(=O)[C@@H](N)CCCCN)C(C)C)[C@@H](C)CC)C(C)SC[C@H](NC(=O)[C@H](CCC(=O)O)NC(=O)[C@H](Cc4c[nH]cn4)NC3=O)C(=O)N[C@@H](CCCNC(=N)N)C(=O)N[C@@H](CCSC)C(=O)N[C@@H](CC(N)=O)C(=O)N2)NC1=O (stereo partly shown),Lactococcus lactis,cell growth,HP,,0.213 ± 0.009 µM
CC(=O)[O-].CN(C)C=O.F[P-](F)(F)(F)(F)F.[Co+2].c1ccc(CN2CCN3CCCN(CC2)CCN(Cc2ccccc2)CC3)cc1,Leishmania donovani,,"THP-1-derived macrophages, intracellular amastigotes",,> 10 µM
CC(C)[C@@H]1NC(=O)[C@H](CCCNC(=N)N)NC(=O)[C@H](Cc2ccc3ccccc3c2)NC(=O)[C@H](CCCNC(=N)N)NC(=O)CSC[C@@H](C(N)=O)NC(=O)[C@H](CCCNC(=N)N)NC(=O)[C@H](Cc2ccc(O)cc2)NC(=O)[C@H](CCCNC(=N)N)NC(=O)[C@H](Cc2c[nH]cn2)NC(=O)[C@H](CC2CCCCC2)NC(=O)[C@H]2CCCN2C1=O,hepatitis C virus,"viral replication, Renilla luciferase reporter",Huh7.5,48 h,0.000345 µM
CC(=O)[O-].F[P-](F)(F)(F)(F)F.[Cu+2].c1ccc(CN2CCN3CCN(CC2)CCN(Cc2ccccc2)CC3)cc1,Leishmania donovani,"parasite growth, resazurin",,"72 h, amastigote",> 20 µM
CCCCCCCCCCCCCCC[C@@H](O)[C@H](CO)NC(=O)NCCCC[C@H](NC(=O)[C@H](CC(N)=O)NC(=O)[C@H](CCCCN)NC(=O)[C@H](CCC(=O)O)NC(=O)[C@H](CCC(N)=O)NC(=O)[C@H](CCC(N)=O)NC(=O)[C@H](CC(N)=O)NC(=O)[C@H](CCC(N)=O)NC(=O)[C@H](CO)NC(=O)[C@H](CCC(=O)O)NC(=O)[C@H](CCC(=O)O)NC(=O)[C@@H](NC(=O)[C@H](CC(C)C)NC(=O)[C@H](CO)NC(=O)[C@H](Cc1c[nH]cn1)NC(=O)[C@@H](NC(=O)[C@H](CC(C)C)NC(=O)[C@H](CO)NC(=O)[C@@H](NC(=O)[C@@H](N)Cc1ccc(O)cc1)[C@@H](C)O)[C@@H](C)CC)[C@@H](C)CC)C(N)=O,HIV-1 HXB2,"viral infectivity, luciferase reporter",TZM-bl,,0.35 ± 0.06 µM

# Some of these lines once more:
SMILES,organism,test,test system,setting,IC50
CC(=O)[O-].F[P-](F)(F)(F)(F)F.[Cu+2].c1ccc(CN2CCN3CCN(CC2)CCN(Cc2ccccc2)CC3)cc1,Leishmania donovani,"parasite growth, resazurin",,"72 h, amastigote",> 20 µM
